Experimental data collected from several papers.
Protocols differ between the studies behind these lines. Values joined by “and” are separate records of one study, mostly repeats; a detail may differ. ± gives the spread as reported.

SMILES	assay	test system	setting	quantity	value
COc1cc2c(Oc3ccc4[nH]c(C)cc4c3F)ccnc2cc1OCC1(N)CC1		paediatric recurrent refractory sarcoma	12 mg	grade 3 Epistaxis	0%
Cn1nccc1[C@]1(CNC(=O)c2ccc(F)c(F)c2-c2ccc(C(F)(F)F)cc2)NC(=O)NC1=O		mouse	oral, 1.0 mg/kg	dose-normalised AUC	2 kg·h/L
CC(=O)c1c(C)c2cnc(Nc3ccc(C4CCN(CCS(C)(=O)=O)CC4)cn3)nc2n(C2CCCC2)c1=O		Sprague-Dawley rat, both sexes	oral, 4 weeks, repeated dosing	maximum tolerated dose	60 mg/kg
C[C@@H]1OC(=O)NN=C1c1ccc(-c2ccc(F)cc2)c(C(F)(F)F)c1	phase I trial, refers to: Anaemia all grades	human patients	5 mg loading then 0.25 mg daily	patients with adverse event	0%
CN[C@H](CC(C)C)C(=O)N[C@H]1C(=O)N[C@@H](CC(N)=O)C(=O)N[C@H]2C(=O)N[C@H]3C(=O)N[C@H](C(=O)N[C@H](C(=O)O)c4cc(O)cc(O)c4-c4cc3ccc4O)[C@H](O)c3ccc(c(Cl)c3)Oc3cc2cc(c3O[C@@H]2O[C@H](CO)[C@@H](O)[C@H](O)[C@H]2O[C@H]2C[C@](C)(N)[C@H](O)[C@H](C)O2)Oc2ccc(cc2Cl)[C@H]1O		mouse	intravenous	maximum tolerated dose	300 mg/kg
C=CC(=O)N1CC[C@H](n2nc(C#Cc3cc(OC)cc(OC)c3)c3c(N)ncnc32)C1		patients with advanced solid tumours	oral, dose not given, Vomiting, any grade, QD, together with: lanthanum carbonate hydrate	adverse drug reaction incidence	16.7%
NCCCC[C@@H]1NC(=O)[C@@H](Cc2c[nH]c3ccccc23)NC(=O)[C@H](c2ccccc2)NC(=O)[C@@H]2C[C@@H](OC(=O)NCCN)CN2C(=O)[C@H](Cc2ccccc2)NC(=O)[C@H](Cc2ccc(OCc3ccccc3)cc2)NC1=O		healthy human volunteers	1950 µg twice daily	subjects with adverse event Nasopharyngitis	5%
CC[C@H](C)[C@H](NC(=O)[C@H](CC(N)=O)NC(=O)[C@H](CCC(=O)O)NC(=O)[C@H](C)NC(=O)[C@H](Cc1c[nH]cn1)NC(=O)[C@@H](NC(=O)[C@@H]1CCCN1C(=O)[C@H](CO)NC(=O)[C@@H]1CCCN1C(=O)[C@@H](NC(=O)[C@H](Cc1ccc(O)cc1)NC(=O)[C@@H](NC(=O)[C@H](CCCNC(=N)N)NC(=O)[C@H](CO)NC(=O)[C@@H](NC(=O)[C@H](Cc1c[nH]cn1)NC(C)=O)[C@@H](C)O)[C@@H](C)CC)[C@@H](C)CC)[C@@H](C)CC)C(N)=O	circular dichroism	water with 5% DMSO	500 µM, 18 °C	alpha-helix content	2%
CNC(=O)c1cc(Oc2ccc(NC(=O)Nc3cc(C(C)(C)C)nn3-c3ccc4ncccc4c3)c(F)c2)ccn1	intraocular pressure increased, NCI CTC v3.0	human patients	oral, all dose levels	related SAE	2%
C[C@]1(O)C[C@@](N)(c2ccc(-c3nc4n(c3-c3ccccc3)COc3ccncc3-4)cc2)C1		human, advanced or metastatic solid tumours	24 mg intermittent, phase I dose escalation	patients with TEAE	75%
CC(C)C[C@@H](NC(=O)CNC(=O)[C@@H](CCCCN)NC(=O)[C@@H](CC(C)C)NC(=O)[C@@H](CCCCN)NC(=O)[C@@H](CCCNC(=N)N)NC(=O)[C@@H](CC(C)C)NC(=O)[C@@H](CC(C)C)NC(=O)[C@@H](CCCNC(=N)N)NC(=O)[C@H](N)CCCNC(=N)N)C(=O)N[C@H](CCCCN)C(=O)N[C@H](CCCCN)C(=O)N[C@H](Cc1ccc(O)cc1)C(=O)N[C@H](CC(C)C)C(=O)N[C@H](Cc1ccc(O)cc1)C(=O)N[C@H](Cc1ccccc1)C(=O)N[C@H](CCCCN)C(=O)N[C@H](CC(C)C)C(=O)N[C@H](CCC(N)=O)C(=O)N[C@H](CC(C)C)C(=O)N[C@H](CC(C)C)C(=O)N[C@H](CCCCN)C(=O)N[C@H](CCCCN)C(N)=O	analytical RP-HPLC C18			HPLC retention time	14.7 min
CC(C)C[C@H](NC(=O)[C@H](CCCCN)NC(=O)OCC1c2ccccc2-c2ccccc21)C(=O)N[C@H](C(=O)N[C@@H](Cc1ccccc1)C(=O)N[C@@H](Cc1ccccc1)C(=O)N[C@@H](CCCCN)C(=O)NCC(=O)N[C@@H](Cc1ccccc1)C(=O)N[C@@H](C)C(=O)N[C@@H](Cc1c[nH]c2ccccc12)C(=O)N[C@@H](CC(N)=O)C(=O)N[C@H](C(=O)N[C@H]1CSSC[C@@H](C(=O)N[C@@H](Cc2c[nH]cn2)C(=O)N[C@@H](CCCNC(=N)N)C(=O)N[C@@H](CCCNC(=N)N)C(=O)N[C@@H](C)C(=O)N[C@@H](CC(N)=O)C(N)=O)NC(=O)[C@H](C(C)C)NC(=O)[C@H](CCCNC(=N)N)NC(=O)[C@H](C(C)C)NC(=O)CNC(=O)[C@H](CC(N)=O)NC(=O)[C@H](CCCNC(=N)N)NC(=O)[C@H](Cc2ccc(O)cc2)NC(=O)[C@H](C(C)C)NC1=O)C(C)C)C(C)C		ICR mice, blood	intraductal mammary, 10 mg/kg, day 5	neutrophils	20.1 ± 0.99%
C[C@@H](NC(=O)N1C(=O)[C@H](Cc2ccnc(N)c2)[C@H]1C(=O)O)C1CCCCC1		healthy Chinese adult volunteers	continuous intravenous infusion, dose not given, 5.0 days, CTCAE 5.0, all doses	drug-related adverse events	10%
COc1cccc(Oc2ccccc2NC(=O)CNC(=O)c2cccc3ccccc23)c1		esterase-deficient SCID mice, male	oral, 15 mg/kg/day, 14 days, toxicity study	serum potassium	7.6 mmol/L and > 10 mmol/L and 7.9 mmol/L
COc1cc2c(OC3CCNCC3)c3c(c(-c4ccc5c(c4)OCO5)c2cc1OC)C(=O)OC3		mouse	oral	CL/F	0.848 L/h
C[C@]1(CO)Cc2ncn(-c3ccc(C#N)c(Cl)c3)c2C(=O)O1		healthy Japanese subjects	dose not given, single dose, all doses	drug-related orthostatic hypotension	11.1%
CCCCCCCCCCCCCCCC(=O)N[C@@H](CCC(=O)NCCCC[C@H](NC(=O)[C@H](CC(=O)O)NC(=O)[C@H](CO)NC(=O)[C@@H](NC(=O)[C@H](Cc1ccccc1)NC(=O)[C@@H](NC(=O)CNC(=O)[C@H](CCC(N)=O)NC(=O)[C@H](CO)NC(=O)[C@@H](N)Cc1c[nH]cn1)[C@@H](C)O)[C@@H](C)O)C(=O)N[C@@H](CO)C(=O)N[C@@H](CCC(=O)O)C(=O)N[C@@H](Cc1ccc(O)cc1)C(=O)N[C@@H](CC(C)C)C(=O)N[C@@H](CC(=O)O)C(=O)N[C@@H](CO)C(=O)N[C@@H](CCC(=O)O)C(=O)N[C@@H](CCCNC(=N)N)C(=O)N[C@@H](C)C(=O)N[C@@H](CCCNC(=N)N)C(=O)N[C@@H](CC(=O)O)C(=O)N[C@@H](Cc1ccccc1)C(=O)N[C@H](C(=O)N[C@@H](C)C(=O)N[C@@H](Cc1c[nH]c2ccccc12)C(=O)N[C@@H](CC(C)C)C(=O)N[C@@H](CCC(=O)O)C(=O)N[C@@H](C)C(=O)NCC(=O)NCC(=O)O)C(C)C)C(=O)O		human, CrCl ≥45 to <60 mL/min	sc, 100 µg single dose	treatment-related adverse events	42.9%
N=C(N)NCCC[C@@H](NC(=O)[C@@H](N)Cc1ccccc1)C(=O)N[C@@H](Cc1ccccc1)C(=O)N[C@@H](CCCCN)C(N)=O	LC-MS	human	25 mg, 5.833 h	median amount excreted in urine	8.37e+06 ng
O=C(Nc1ccccc1)C1CCN(C(=O)Oc2cccnc2)CC1	adverse event reporting	healthy women	oral, 60 mg, 7 days	subjects with disturbance in attention	14.3%

SMILES	assay	test system	setting	quantity	value
COc1ccnc(C(=O)N[C@H]2COC(=O)[C@H](Cc3ccccc3)[C@@H](OC(=O)C(C)C)[C@H](C)OC2=O)c1OCOC(=O)C(C)C		lactating goat, kidney	dose not given, outcome not detected	share of TRR	not detected
CCc1ccc(CC/C=C/c2ccc3c(c2)C(=O)CC3)cc1		Sprague-Dawley rat, female	oral, 120 mg/kg/day, 14 days	TG	0.58 mM
C[C@H](O)c1cnc(NS(=O)(=O)c2ccc(Cl)c(Cl)c2)nc1		hepatocytes, HSD17B13 knockout with AAV control, C57BL/6J mouse, male	1 µM	scaled intrinsic clearance	< 20 mL/min/kg
CN1CCN(S(=O)(=O)c2cc([N+](=O)[O-])ccc2N(CCOS(C)(=O)=O)CCOS(C)(=O)=O)CC1		naive NOD/SCID mice, pooled blood	intraperitoneal, 18.8 mg/kg, week 4	blood urea nitrogen	11 mmol/L
S=c1oc(-c2ccccc2)nn1CN1CCN(Cc2ccccc2)CC1		Wistar rat female	oral, 100 mg/kg, acute toxicity OECD 423	serum AST	123 ± 13.4 U/L
Oc1ccc(Cl)c(-c2ccc(Cl)cc2Cl)c1Cl	enantioselective gas chromatography	racemized sample	column temperature 145 °C	enantiomeric fraction	0.49
CCC(C(=O)Nc1cc(NC2COC2)ccc1C)n1cc(Br)cc2nc(SCc3ccc(F)cc3)nc1-2 (centres unmarked)		mouse, liver microsomes		intrinsic clearance	2500 mL/min/g protein
CO[C@H]1C[C@@H]2CC[C@@H](C)[C@@](O)(O2)C(=O)C(=O)N2CCCC[C@H]2C(=O)O[C@H]([C@H](C)C[C@@H]2CC[C@@H](OC(=O)NCCOCCOCCOCCOCCOCCOCCOCCOCCC(=O)N3CCc4cc(Cn5nc(-c6ccc7oc(N)nc7c6)c6c(N)ncnc65)ccc4C3)[C@H](OC)C2)C[C@@H](O)[C@H](C)/C=C(\C)[C@@H](O)[C@@H](OC)C(=O)[C@H](C)C[C@H](C)/C=C/C=C/C=C/1C	phase 1 dose escalation, refers to: mucositis	advanced solid tumour patients	intravenous, 10 mg weekly, any grade	dose-reducing adverse events	25%
O=S(=O)(Nc1ccccc1)c1ccc(NC(=S)Nc2ccccc2)cc1	refers to: EO%	female mouse, blood	oral, 80 mg/kg daily, 14 days	blood cell fraction	1.78%
C=C(CN(C(=O)c1c(C(F)F)nn(C)c1F)C1CC1)c1ccc(Cl)cc1Cl	static acute toxicity test	zebrafish (Brachydanio rerio)	0.578 mg a.i./L, 72 h	mortality	0%
COc1ccc2nc3cc(Cl)ccc3c(Nc3cc(CN4CCCC4)c(O)c(CN4CCCC4)c3)c2n1		mouse, blood	intraperitoneal, 28 mg/kg	mean corpuscular volume	44.5 fL
[O-][S+]1CCc2nc(N3CCC(c4ncc(Cl)cn4)CC3)nc(NC3(CO)CCC3)c21 (centres unmarked)	refers to: Diarrhoea	healthy male humans	12 mg twice daily	adverse event incidence	0%
COc1c(OCCCN2CCOCC2)ccc2c1N=C(NC(=O)c1cnc(N)nc1)N1CCN=C21	refers to: Chills	patients with advanced malignancies	intravenous, dose not given, any grade, all cohorts, together with: gemcitabine	patients with adverse event	26%
O=C1Nc2cc3[nH]nc(-c4ccncc4)c3cc2CN1Cc1ccccc1	CTCAE v4.03	advanced solid tumour patients	intravenous, 7.2 mg/kg, schedules 1/2	patients with blurred vision	40%
Cn1cc(-c2nc(N[C@@H]3CCCC[C@@H]3N)c(F)c3c2C(=O)NC3)cn1	any bleeding	patients with relapsed or refractory AML	oral, 120 mg once daily	adverse events	50%
Cn1cncc1-c1c(F)cncc1NC(=O)c1c(N)nn2cc(F)cnc12		human patients	oral, 180 mg once daily, 21 days	dose-limiting toxicity upper GI haemorrhage	0%
COc1ccc(-c2c(-c3ccc(C#N)c(F)c3)nc(N3CCC(N)CC3)n(C)c2=O)cc1F	refers to: Gout	human patients	oral, dose not given, dose escalation, NG	serious adverse event incidence	2%
C=CC(=O)Nc1cc(Nc2nccc(Nc3cc(Cl)c(F)cc3C(C)(C)O)n2)c(OC)cc1N1CC[C@@H](N(C)C)C1	treatment-emergent adverse events	human	oral, 300 mg, phase I clinical trial	incidence of weight decreased	11.8%
COc1ncccc1-c1cnn2ccc(N3CCN(C(=O)OC(C)C)CC3)nc12		mouse nerve ligation model, plasma	oral, 30 mg/kg, 120 min after last dose, repeat dosing day 4	drug concentration	5.3 µM
